# Published values gathered from unrelated publications.
# Lines come from different studies, so protocols differ. Several values in a cell are separate wells, animals, samples, runs or records. Numbers after ± are the reported error.
SMILES,tested on,assay,system,conditions,scale,quantity,result
CCc1cc(OCCOCCN(C)C)ccc1Cl,,locomotor activity in dark,"zebrafish larvae, 7 dpf","10 µM, minute 5, dark phase",,larval motion,1.7 ± 1.2 pixels/frame
Nc1ncc(-c2cc(-c3cnn(CC(F)(F)F)c3)ncc2F)nc1C(=O)NC1CNCC(F)C1 (stereo not drawn),PRKCE,KINOMEscan,,1 µM,baseline: DMSO control,remaining binding,95%
CC(=O)[O-].O.O.O.O.[Mn+2].[O-]c1ccc(Br)cc1C=NCCN1CCOCC1,,nitric oxide scavenging,,200 µM,,inhibition,39.9%
C=CC(=O)Nc1cccc(Cn2ncc3cnc(Nc4cnn(CCOC)c4)nc32)c1,PKMYT1 human,"binding, KINOMEscan",,100 nM,lower = stronger binding,percent of control,100%
Cn1ncc2cc(-c3cncc(Cl)c3N3CCC4(CCNC4=O)CC3)ccc21,LS174T,"gene expression, microarray, item: HOXC4 mRNA",,"concentration not given, 24 h",baseline: untreated cells,log2 fold change,2.45
COc1cc(O)ccc1CCC(c1ccc(O)cc1)c1cc2c(c(C)c1O)OC(c1ccc(O)cc1)CC2 (mixture of isomers),,item: TXB2,human whole blood,"30 µM, with: Escherichia coli",,amount,25400 ± 13000 pg/mL blood
COC1CN([C@H]2CC[C@H]([C@@]3(C)Oc4c(Cl)cc(C(=O)NCc5c(SC)cc(C)[nH]c5=O)c(C)c4O3)CC2)C1,,"RNA-seq, item: SEPTIN10 mouse homolog","mouse, HT-1376 xenograft, whole blood",dose not given,baseline: vehicle,log2 fold change,0.258
Cc1ncsc1-c1ccc(C(C)NC(=O)C2CC(O)CN2C(=O)C(NC(=O)CCCCCCCCCCN2CCCC(Nc3ncc(Cl)c(Nc4ccccc4S(=O)(=O)C(C)C)n3)C2)C(C)(C)C)cc1 (stereo not drawn),22Rv1,"RNA-seq, item: PIK3R1 mRNA",,concentration not given,baseline: DMSO,log2 fold change,-1.14
c1ccc(-c2n[nH]cc2-c2ccnc3ccccc23)nc1,TPK2 (Candida albicans),"kinase binding, MIB/MS competition",Candida albicans lysate,10 µM,baseline: DMSO,log2 fold change,-0.21
[2H]C([2H])([2H])C1(C([2H])([2H])[2H])NC(=O)N(c2ccc(F)c(C(C)(F)F)c2)C1=O,Schistosoma mansoni,,"juvenile stage, infected mice","oral, 50 mg/kg",baseline: untreated infected,worm burden reduction,100%
CN1CCCNC(=O)c2cccc(c2)C(=O)NCCCN(C)CCCNc2cccc3c2C(=O)c2cccc(c2C3=O)NCCC1,SAS,"RNA-Seq, item: MTIF2 mRNA",,"1 µM, 6 h",baseline: untreated cells,log2 fold change,0.818
CNS(=O)(=O)Nc1nccc(Cc2c(C)c3ccc(Oc4ncccc4F)cc3oc2=O)c1F,COLO-684,cell viability,,7 days,,IC50,> 1 µM
CCN(C(=O)c1cc(F)ccc1Oc1nncnc1N1CCC2(C1)CN([C@H](CCCN(C)CCOC)C(C)C)C2)C(C)C,U2OS,cell growth or viability,,7 days,,GI50,> 10 µM
CN(C)C(=O)c1ccnc(N2Cc3cn(Cc4ccc(F)cc4F)nc3C2)n1,,,"mouse, hippocampal slice, Schaffer collaterals","dose not given, interstimulus interval 200",baseline: second over first response,paired-pulse ratio,1.39 and 1.33 and 1.26 and 1.75 and 1.24 and 1.46
COCCNCCOc1cc(C)cc(C(C)C)c1,,,"zebrafish larvae, 7 dpf","10 µM, minute 2",,larval motion,17.5 ± 1.7 pixels/frame
C=C(NC(=O)c1csc(-c2nc3c(cc2O)-c2nc(cs2)C(=O)NC(C(C)O)C(=O)NC(=C(C)OC)c2nc(cs2)C(=O)NC2c4nc(cs4)C(=O)NC(COC(=O)c4c5c6c(cccc6n4O)COC(=O)C(OC4CC(C)(O)C(N(C)C)C(C)O4)C2OC5)c2nc-3cs2)n1)C(N)=O (stereo not drawn),Streptococcus pneumoniae,,"-25, immunocompromised mice, lung","8 mg/kg/day once daily, 24 h post-dose",,lung bacterial load,4.4 log10 CFU/lung
COc1ccc(N2CCN(CC(O)COc3ccc4ccccc4c3)CC2)cc1 (stereo not drawn),,,"zebrafish larvae, 7 dpf","10 µM, minute 6",,larval motion,12.7 ± 1.9 pixels/frame
CC(C)c1ccc(N(C)c2ccc3c(c2)OCC[C@H]3CNc2cnccc2C(=O)O)cc1,NMC-G1,"cell growth, CellTiter-Glo",,7 days,,IC50,≥ 10 µM
Cc1cc(C(C)(C)C)ccc1OCCOCCN(C)C,,,"zebrafish larvae, 7 dpf","10 µM, minute 4",,larval motion,13.8 ± 1.2 pixels/frame
FC(F)(F)c1cccc(CNc2nc(NC3CCN(Cc4ccccc4)CC3)c3nc[nH]c3n2)c1,Cryptococcus neoformans,"RNA-seq, item: CNAG_02001 mRNA",,"48 µg/mL, 3 h",baseline: untreated wild type,log2 fold change,-1.39
C=CC(=O)N1[C@@H](c2ccc3c(c2)OCO3)c2[nH]c3ccccc3c2C[C@H]1C(=O)N1CCN(C)CC1,human cyclin E1 N112C-3xFLAG:CDK2,"co-IP with TMT proteomics, item: KPNB1",,"concentration not given, Q14974",baseline: wild type DMSO,relative co-enrichment,101%

# A few entries again:
SMILES,tested on,assay,system,conditions,scale,quantity,result
C=C(NC(=O)c1csc(-c2nc3c(cc2O)-c2nc(cs2)C(=O)NC(C(C)O)C(=O)NC(=C(C)OC)c2nc(cs2)C(=O)NC2c4nc(cs4)C(=O)NC(COC(=O)c4c5c6c(cccc6n4O)COC(=O)C(OC4CC(C)(O)C(N(C)C)C(C)O4)C2OC5)c2nc-3cs2)n1)C(N)=O (stereo not drawn),Streptococcus pneumoniae,,"-25, immunocompromised mice, lung","8 mg/kg/day once daily, 24 h post-dose",,lung bacterial load,4.4 log10 CFU/lung
COc1ccc(N2CCN(CC(O)COc3ccc4ccccc4c3)CC2)cc1 (stereo not drawn),,,"zebrafish larvae, 7 dpf","10 µM, minute 6",,larval motion,12.7 ± 1.9 pixels/frame
